Assay results collected from several papers.
Each line is one published result; not all experiments were run side by side.
HDAC8: Histone deacetylase 8 (HDAC8, Homo sapiens, UniProt Q9BY41)
PTGS2: Prostaglandin G/H synthase 2 (PTGS2, Homo sapiens, UniProt P35354)
Sequence of UniProt P35354 (whole entry, looked up): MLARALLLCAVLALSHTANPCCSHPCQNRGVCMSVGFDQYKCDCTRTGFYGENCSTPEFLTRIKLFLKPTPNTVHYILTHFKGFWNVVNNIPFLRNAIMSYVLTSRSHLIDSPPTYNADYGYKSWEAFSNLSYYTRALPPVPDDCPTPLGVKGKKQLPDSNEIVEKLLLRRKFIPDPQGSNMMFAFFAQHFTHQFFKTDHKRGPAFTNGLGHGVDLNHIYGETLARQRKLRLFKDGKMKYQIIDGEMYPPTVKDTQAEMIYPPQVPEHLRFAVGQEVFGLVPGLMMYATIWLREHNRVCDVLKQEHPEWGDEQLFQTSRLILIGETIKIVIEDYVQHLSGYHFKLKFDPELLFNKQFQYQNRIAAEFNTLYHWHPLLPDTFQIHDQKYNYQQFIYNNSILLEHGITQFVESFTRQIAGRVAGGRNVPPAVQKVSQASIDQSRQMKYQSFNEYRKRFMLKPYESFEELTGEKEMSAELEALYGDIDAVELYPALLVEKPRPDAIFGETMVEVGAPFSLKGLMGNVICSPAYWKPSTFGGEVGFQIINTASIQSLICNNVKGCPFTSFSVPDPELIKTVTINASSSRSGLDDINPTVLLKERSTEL
HDAC6: Protein deacetylase HDAC6 (HDAC6, Homo sapiens, UniProt Q9UBN7)
Sequence of UniProt Q9UBN7 (whole entry, looked up): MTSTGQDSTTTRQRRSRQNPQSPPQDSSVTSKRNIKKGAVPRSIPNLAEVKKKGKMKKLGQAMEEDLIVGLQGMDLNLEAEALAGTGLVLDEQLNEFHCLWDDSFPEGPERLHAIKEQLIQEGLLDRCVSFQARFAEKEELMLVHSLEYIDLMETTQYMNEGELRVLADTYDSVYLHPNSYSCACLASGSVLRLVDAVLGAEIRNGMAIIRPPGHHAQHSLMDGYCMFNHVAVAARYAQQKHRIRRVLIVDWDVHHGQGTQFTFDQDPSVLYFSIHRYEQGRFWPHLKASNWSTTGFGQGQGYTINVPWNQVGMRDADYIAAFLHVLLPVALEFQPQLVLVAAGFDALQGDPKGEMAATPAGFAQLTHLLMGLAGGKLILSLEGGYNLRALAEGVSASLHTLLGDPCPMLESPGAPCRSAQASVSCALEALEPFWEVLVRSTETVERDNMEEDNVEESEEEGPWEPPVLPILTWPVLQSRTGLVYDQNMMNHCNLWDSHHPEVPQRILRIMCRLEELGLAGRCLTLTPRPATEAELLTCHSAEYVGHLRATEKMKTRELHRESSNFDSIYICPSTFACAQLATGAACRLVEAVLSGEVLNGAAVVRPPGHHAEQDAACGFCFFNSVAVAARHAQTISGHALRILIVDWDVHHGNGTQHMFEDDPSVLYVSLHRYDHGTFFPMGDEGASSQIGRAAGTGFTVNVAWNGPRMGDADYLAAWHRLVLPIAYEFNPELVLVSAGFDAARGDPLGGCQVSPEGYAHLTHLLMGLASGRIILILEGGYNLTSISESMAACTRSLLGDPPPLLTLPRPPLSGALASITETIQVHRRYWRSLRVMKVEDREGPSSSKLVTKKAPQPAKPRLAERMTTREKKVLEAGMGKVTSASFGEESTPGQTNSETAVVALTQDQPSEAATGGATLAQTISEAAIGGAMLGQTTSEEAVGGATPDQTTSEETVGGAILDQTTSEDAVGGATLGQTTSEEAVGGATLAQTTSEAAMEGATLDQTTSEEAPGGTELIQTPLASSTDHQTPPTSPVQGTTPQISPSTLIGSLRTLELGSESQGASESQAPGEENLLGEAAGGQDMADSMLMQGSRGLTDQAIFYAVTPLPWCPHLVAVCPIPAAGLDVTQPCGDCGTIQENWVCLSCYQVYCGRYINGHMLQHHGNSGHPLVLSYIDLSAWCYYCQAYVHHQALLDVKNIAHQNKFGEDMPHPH
PDE10A: cAMP and cAMP-inhibited cGMP 3',5'-cyclic phosphodiesterase 10A (PDE10A, Homo sapiens, UniProt Q9Y233)
Sequence of UniProt Q9Y233 (whole entry, looked up): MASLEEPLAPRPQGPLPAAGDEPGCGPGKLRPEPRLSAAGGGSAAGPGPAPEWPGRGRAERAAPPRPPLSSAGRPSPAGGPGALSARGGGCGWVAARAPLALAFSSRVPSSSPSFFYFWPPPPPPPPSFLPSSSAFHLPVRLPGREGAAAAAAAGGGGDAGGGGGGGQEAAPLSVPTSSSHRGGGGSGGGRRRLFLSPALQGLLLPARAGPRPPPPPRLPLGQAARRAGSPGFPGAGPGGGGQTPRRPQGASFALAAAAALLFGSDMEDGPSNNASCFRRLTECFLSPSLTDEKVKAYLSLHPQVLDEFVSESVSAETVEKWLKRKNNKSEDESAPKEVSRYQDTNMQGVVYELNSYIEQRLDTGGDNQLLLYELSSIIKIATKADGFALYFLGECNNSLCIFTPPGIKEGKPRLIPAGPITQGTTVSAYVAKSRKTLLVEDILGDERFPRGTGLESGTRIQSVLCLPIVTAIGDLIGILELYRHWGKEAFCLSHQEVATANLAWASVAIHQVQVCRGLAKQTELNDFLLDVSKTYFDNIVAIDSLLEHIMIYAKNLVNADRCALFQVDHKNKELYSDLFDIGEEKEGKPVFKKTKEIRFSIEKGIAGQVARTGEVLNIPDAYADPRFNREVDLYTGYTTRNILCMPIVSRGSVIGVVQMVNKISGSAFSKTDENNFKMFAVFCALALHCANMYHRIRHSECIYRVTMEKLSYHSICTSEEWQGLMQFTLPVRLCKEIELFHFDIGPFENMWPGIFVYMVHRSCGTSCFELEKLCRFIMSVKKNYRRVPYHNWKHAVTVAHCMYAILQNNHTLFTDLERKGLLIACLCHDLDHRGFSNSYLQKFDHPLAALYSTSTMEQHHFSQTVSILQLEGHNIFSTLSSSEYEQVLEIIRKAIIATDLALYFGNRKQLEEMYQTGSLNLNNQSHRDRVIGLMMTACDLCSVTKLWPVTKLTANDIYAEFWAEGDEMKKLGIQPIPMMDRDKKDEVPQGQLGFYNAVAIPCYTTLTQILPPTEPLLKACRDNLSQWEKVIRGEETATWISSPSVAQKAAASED
USP51: Ubiquitin carboxyl-terminal hydrolase 51 (USP51, Homo sapiens, UniProt Q70EK9)
Sequence of UniProt Q70EK9 (whole entry, looked up): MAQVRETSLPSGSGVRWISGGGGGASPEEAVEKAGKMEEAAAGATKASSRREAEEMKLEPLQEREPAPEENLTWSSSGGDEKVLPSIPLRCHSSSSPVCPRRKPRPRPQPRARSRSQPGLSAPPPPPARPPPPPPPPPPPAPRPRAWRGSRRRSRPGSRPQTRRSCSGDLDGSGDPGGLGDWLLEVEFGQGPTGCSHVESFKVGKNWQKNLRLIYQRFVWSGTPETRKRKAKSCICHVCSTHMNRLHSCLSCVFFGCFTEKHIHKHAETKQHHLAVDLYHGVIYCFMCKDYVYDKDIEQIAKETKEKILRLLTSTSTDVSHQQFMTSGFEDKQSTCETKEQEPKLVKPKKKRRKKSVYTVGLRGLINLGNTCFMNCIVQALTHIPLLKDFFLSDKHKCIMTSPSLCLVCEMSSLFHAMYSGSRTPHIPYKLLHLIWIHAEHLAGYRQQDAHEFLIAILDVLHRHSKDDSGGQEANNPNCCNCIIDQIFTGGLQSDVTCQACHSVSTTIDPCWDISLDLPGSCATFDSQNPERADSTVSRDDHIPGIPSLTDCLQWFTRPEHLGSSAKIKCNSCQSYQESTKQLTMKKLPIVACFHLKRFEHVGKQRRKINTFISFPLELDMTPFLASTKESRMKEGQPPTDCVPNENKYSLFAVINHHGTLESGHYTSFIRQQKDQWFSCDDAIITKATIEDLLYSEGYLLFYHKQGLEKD
SIRT6: NAD-dependent protein deacylase sirtuin-6 (SIRT6, Homo sapiens, UniProt Q8N6T7)
MPO: Myeloperoxidase (MPO, Homo sapiens, UniProt P05164)
Sequence of UniProt P05164 (whole entry, looked up): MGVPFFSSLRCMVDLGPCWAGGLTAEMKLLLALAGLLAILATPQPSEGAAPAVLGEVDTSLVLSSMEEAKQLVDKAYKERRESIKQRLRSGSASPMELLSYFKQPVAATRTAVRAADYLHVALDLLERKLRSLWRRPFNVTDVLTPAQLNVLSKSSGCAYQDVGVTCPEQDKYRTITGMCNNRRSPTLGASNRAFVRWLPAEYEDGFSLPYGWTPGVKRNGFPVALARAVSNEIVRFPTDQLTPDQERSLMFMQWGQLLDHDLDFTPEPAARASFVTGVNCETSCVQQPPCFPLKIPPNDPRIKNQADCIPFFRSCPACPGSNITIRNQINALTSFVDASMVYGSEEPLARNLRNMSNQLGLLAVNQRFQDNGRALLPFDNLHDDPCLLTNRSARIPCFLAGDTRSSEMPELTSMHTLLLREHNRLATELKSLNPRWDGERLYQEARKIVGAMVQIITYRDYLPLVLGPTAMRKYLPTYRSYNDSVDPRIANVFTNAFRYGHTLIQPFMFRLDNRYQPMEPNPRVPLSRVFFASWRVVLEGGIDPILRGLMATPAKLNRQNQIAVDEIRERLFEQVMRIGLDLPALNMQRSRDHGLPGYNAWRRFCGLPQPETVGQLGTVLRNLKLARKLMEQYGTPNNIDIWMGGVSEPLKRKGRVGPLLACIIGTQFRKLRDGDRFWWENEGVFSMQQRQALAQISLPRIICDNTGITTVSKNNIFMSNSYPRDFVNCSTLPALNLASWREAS
SLC6A4: Sodium-dependent serotonin transporter (SLC6A4, Homo sapiens, UniProt P31645)
KCNA1: Potassium voltage-gated channel subfamily A member 1 (KCNA1, Homo sapiens, UniProt Q09470)
HDAC1: Histone deacetylase 1 (HDAC1, Homo sapiens, UniProt Q13547)
Sequence of UniProt Q13547 (whole entry, looked up): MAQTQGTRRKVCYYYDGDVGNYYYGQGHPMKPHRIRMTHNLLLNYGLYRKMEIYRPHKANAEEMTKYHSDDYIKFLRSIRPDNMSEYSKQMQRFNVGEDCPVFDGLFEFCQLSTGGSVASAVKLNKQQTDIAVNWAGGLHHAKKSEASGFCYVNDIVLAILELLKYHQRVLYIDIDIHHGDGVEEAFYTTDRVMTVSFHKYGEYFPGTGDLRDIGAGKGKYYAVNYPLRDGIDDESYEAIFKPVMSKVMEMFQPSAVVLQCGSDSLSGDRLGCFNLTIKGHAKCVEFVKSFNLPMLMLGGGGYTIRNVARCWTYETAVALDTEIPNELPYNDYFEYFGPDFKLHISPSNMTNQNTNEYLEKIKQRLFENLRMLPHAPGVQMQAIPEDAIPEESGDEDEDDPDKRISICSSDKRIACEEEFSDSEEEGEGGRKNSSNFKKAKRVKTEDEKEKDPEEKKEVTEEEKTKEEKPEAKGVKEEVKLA
Sequence of UniProt P00374 (whole entry, looked up): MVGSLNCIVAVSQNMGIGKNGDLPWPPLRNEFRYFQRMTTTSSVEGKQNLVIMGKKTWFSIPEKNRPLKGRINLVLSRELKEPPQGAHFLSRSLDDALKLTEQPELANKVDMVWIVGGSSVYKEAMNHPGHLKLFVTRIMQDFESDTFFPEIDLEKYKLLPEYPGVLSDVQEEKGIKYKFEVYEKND

Compound	target or system	assay	conditions	measurement	value
CCN(O)N=Nc1ccc(S(=O)(=O)Nc2cc(C)on2)cc1	–	ABTS scavenging	120 µg/mL	inhibition	21.2%
Cc1cc(OS(=O)(=O)Oc2cccc(C(C)(C)C)c2)cc(C(=O)NO)c1	HDAC8	enzyme activity, inhibitor, fluorescence	10 µM	inhibition	41%
COc1cc(-c2cc(=O)c3c(O)cc(O)cc3o2)ccc1O	PTGS2	enzyme activity, inhibitor	15.63 µg/mL	inhibition	84.2%
Cc1c(OS(=O)(=O)Oc2ccc(Br)cc2)cccc1C(=O)NO	HDAC6	enzyme activity, inhibitor, fluorescence	10 µM	inhibition	31%
COc1ccc2ncnc(Cc3cccc(-c4ccccc4)c3)c2c1	PDE10A	enzyme activity, inhibitor, FP	0.1 µM	inhibition	0%
CC[C@H](C)[C@H](NC(=O)[C@H](CCC(N)=O)NC(=O)[C@H](CC(C)C)NC(=O)[C@H](CCSC)NC(=O)[C@H](CCCCN)NC(=O)[C@H](CO)NC(=O)[C@H](CO)NC(=O)[C@H](CCSC)NC(=O)[C@H](CC(C)C)NC(=O)[C@H](CC(N)=O)NC(=O)[C@@H](NC(=O)[C@@H](NC(=O)[C@H](CO)NC(=O)[C@H](CC(C)C)NC(=O)[C@H](CS)NC(=O)[C@H](CCCNC(=N)N)NC(=O)[C@H](CC(=O)O)NC(=O)[C@H](Cc1c[nH]c2ccccc12)NC(=O)[C@H](Cc1ccccc1)NC(=O)[C@H](C)NC(=O)[C@H](CCC(=O)O)NC(=O)[C@@H](N)CCCCN)C(C)C)[C@@H](C)CC)C(=O)N[C@@H](CC(N)=O)C(=O)N[C@@H](C)C(=O)O	Cyclin-dependent kinase 5, with p35 (CDK5, Homo sapiens, UniProt Q00535)	enzyme activity, inhibitor, radiometric	250 µM	inhibition	53%
COC(=O)c1ccc(O)cc1	PTGS2	enzyme activity, inhibitor	3.9 µg/mL	inhibition	5.02%
CCCCCCCCCCCC1=C(O)C(=O)C=C(O)C1=O	USP51	enzyme activity, inhibitor	5 µM	inhibition	23%
O=C(NOCc1ccc(C(F)(F)F)cc1)c1ccc(CO)cc1	SIRT6	enzyme activity, inhibitor, fluorescence	100 µM	inhibition	84.2%
CC[C@H](C)[C@H](NC(=O)[C@H](CCC(N)=O)NC(=O)[C@@H](NC(=O)[C@H](CCSC)NC(=O)[C@H](CCCCN)NC(=O)[C@H](CO)NC(=O)[C@@H](NC(=O)[C@H](CCSC)NC(=O)[C@H](CC(C)C)NC(=O)[C@H](CC(N)=O)NC(=O)[C@@H](NC(=O)[C@@H](NC(=O)[C@H](CO)NC(=O)[C@H](CC(C)C)NC(=O)[C@H](C)NC(=O)[C@H](CCCNC(=N)N)NC(=O)[C@H](CCC(=O)O)NC(=O)[C@H](Cc1ccc(O)cc1)NC(=O)[C@H](Cc1ccccc1)NC(=O)[C@H](C)NC(=O)[C@H](CC(N)=O)NC(=O)[C@@H](N)CCCCN)[C@@H](C)CC)[C@@H](C)CC)[C@@H](C)O)C(C)C)C(=O)N[C@@H](CC(N)=O)C(=O)N[C@H](C(=O)O)C(C)C	Glycogen synthase kinase-3 beta (GSK3B, Homo sapiens, UniProt P49841)	enzyme activity, inhibitor, radiometric	250 µM	inhibition	-27%
NC/C(=C\F)COc1cccc(Cn2c(=S)[nH]c(=O)c3[nH]cnc32)c1	MPO	enzyme activity, inhibitor, fluorescence	0.1111 µM	inhibition	90.8%
O=C(O)[C@H]1O[C@@H](Oc2cc3oc(-c4ccccc4)cc(=O)c3c(O)c2O)[C@H](O)[C@@H](O)[C@@H]1O	USP51	enzyme activity, inhibitor	5 µM	inhibition	13%
O=C(NO)c1cncc(OS(=O)(=O)Oc2ccc(C(F)(F)F)cc2)c1	Histone deacetylase 9 (HDAC9, Homo sapiens, UniProt Q9UKV0)	enzyme activity, inhibitor, fluorescence	10 µM	inhibition	31%
CC(C)OCCn1c(=S)[nH]c(=O)c2[nH]ccc21	MPO	enzyme activity, inhibitor, fluorescence	3.333 µM	inhibition	99.3%
COc1ccc(Cc2nccc3cc(OC)c(OC)cc23)cc1OC	PDE10A	enzyme activity, inhibitor, FP	0.1 µM	inhibition	47%
O[C@@H]1[C@H](O)[C@@H]2C[C@@H]2[C@H]1n1cnc2c(NCCC3CC3)ncnc21	SLC6A4	ligand displacement, radioligand	10 µM	inhibition	6%
CCc1nn(C)c2nc(-c3ccc(C(=O)O)cc3)nc(NCc3ccc(F)cc3)c12	Dual 3',5'-cyclic-AMP and -GMP phosphodiesterase 11A (PDE11A, Homo sapiens, UniProt Q9HCR9)	enzyme activity, inhibitor, radiometric	10 µM	inhibition	55.3%
Nc1nc(=O)c2nc(CNc3ccc(C(=O)N[C@@H](CCC(=O)O)C(=O)O)cc3)cnc2[nH]1	USP51	enzyme activity, inhibitor	5 µM	inhibition	0%
N#Cc1ccccc1CONC(=O)c1ccc(C(N)=O)cc1	SIRT6	enzyme activity, inhibitor, fluorescence	100 µM	inhibition	63%
CC[C@@]1(O)C(=O)OCc2c1cc1n(c2=O)Cc2cc3c(CN(C)C)c(O)ccc3nc2-1	USP51	enzyme activity, inhibitor	5 µM	inhibition	31%
S=C(NN=Cc1ccc(N2CCCCC2)cc1)NC1CCCCC1	Dihydrofolate reductase (DHFR, Homo sapiens, UniProt P00374)	enzyme activity, inhibitor	500 µM	inhibition	78.2%
COc1ccc(-c2cc(=O)c3c(O)cc(O[C@@H]4O[C@H](CO)[C@@H](O)[C@H](O)[C@H]4O)cc3o2)cc1O	PTGS2	enzyme activity, inhibitor	1.95 µg/mL	inhibition	100%
COc1ccc(Cc2nccc3ccccc23)cc1OC	PDE10A	enzyme activity, inhibitor, FP	0.1 µM	inhibition	0%
C[C@H]1[C@H](C)CC[C@]2(C(=O)O)CC[C@]3(C)C(=CC[C@@H]4[C@@]5(C)CC[C@H](O)C(C)(C)[C@@H]5CC[C@]43C)[C@H]12	USP51	enzyme activity, inhibitor	5 µM	inhibition	19%
Cc1cc([C@@H](C)Nc2ccccc2C(=O)O)c2nc(N3CCC(F)(F)CC3)c(C#N)c(=O)n2c1	Non-receptor tyrosine-protein kinase TYK2, JH1 (TYK2, Homo sapiens, UniProt P29597)	binding, competition with immobilised ligand	1 µM	remaining binding	79%

Compound	target or system	assay	conditions	measurement	value
CNc1ncc2c(/C=C/C(=O)N3CCC(OC)CC3)nn(Cc3cccc(C(F)(F)F)c3)c2n1	Serine/threonine-protein kinase N3 (PKN3, Homo sapiens, UniProt Q6P5Z2)	enzyme activity, inhibitor, radiometric	1 µM	remaining activity	86%
CC12CC3CC(C)(C1)CC(N)(C3)C2	KCNA1	ion current, inhibitor, patch clamp	3 µM	inhibition	7.26%
CC1=C(/C=C/C(C)=C/C=C/C(C)=C/C=C/C=C(C)/C=C/C=C(C)/C=C/C2=C(C)CCCC2(C)C)C(C)(C)CCC1	USP51	enzyme activity, inhibitor	5 µM	inhibition	41%
O=C(O)c1ccc(O)cc1	PTGS2	enzyme activity, inhibitor	31.25 µg/mL	inhibition	100%
Cc1c(OS(=O)(=O)Oc2cccc(C(C)C)c2)cccc1C(=O)NO	HDAC6	enzyme activity, inhibitor, fluorescence	10 µM	inhibition	23%
Cc1ncsc1-c1ccc(CNC(=O)[C@@H]2C[C@@H](O)CN2C(=O)[C@@H](NC(=O)CCCCCCCCNC(=O)CN2CCN(C(=O)c3ccc(Nc4nc(C5CC5)cn5c(-c6cn[nH]c6)cnc45)c(F)c3)CC2)C(C)(C)C)cc1	BDNF/NT-3 growth factors receptor (NTRK2, Homo sapiens, UniProt Q16620)	cell-free assay, competition with immobilised ligand	1 µM	inhibition	> 65%
CCOC(=O)C12CC1C(n1ccc3c(NC4CC4)nc(C#Cc4ccccc4)nc31)C(O)C2O (stereo not shown)	SLC6A4	ligand displacement, radioligand	10 µM	inhibition	-18%
COc1cc([C@H]2OC[C@H]3[C@@H]2CO[C@@H]3c2cc(OC)c(O)c(OC)c2)cc(OC)c1O	PTGS2	enzyme activity, inhibitor	15.63 µg/mL	inhibition	100%
C=CC(=O)N1CCC(COCC(=O)N2CCN(c3nc(-c4cnc(N)nc4C(F)F)nc(N4CCOC[C@@H]4C)n3)CC2)CC1	Protein kinase C epsilon type (PRKCE, Homo sapiens, UniProt Q02156)	binding, competition with immobilised ligand	1 µM	remaining binding	85%
Cc1c(OS(=O)(=O)Oc2ccc(-n3ccnc3)cc2)cccc1C(=O)NO	HDAC1	enzyme activity, inhibitor, fluorescence	5 µM	inhibition	7%
CC(C)c1[nH]c2nc(N)nn2c(=O)c1Cc1ccc(Cl)c(Br)c1	C-C chemokine receptor type 5 (CCR5, Homo sapiens, UniProt P51681)	β-arrestin recruitment, antagonist	1 µM	inhibition	84%
CC(=O)O[C@@]12CO[C@@H]1C[C@H](O)[C@@]1(C)C(=O)[C@H](O)C3=C(C)[C@@H](OC(=O)[C@H](O)[C@@H](NC(=O)OC(C)(C)C)c4ccccc4)C[C@@](O)([C@@H](OC(=O)c4ccccc4)[C@H]21)C3(C)C	USP51	enzyme activity, inhibitor	5 µM	inhibition	0%
Cc1cc(OS(=O)(=O)Oc2ccc(C(C)C)cc2)cc(C(=O)NO)c1	HDAC6	enzyme activity, inhibitor, fluorescence	10 µM	inhibition	28%
COc1ccc(-c2oc3c(CC=C(C)C)c(O)cc(O)c3c(=O)c2O)cc1	USP51	enzyme activity, inhibitor	5 µM	inhibition	35%
CN1CC(Oc2cnc(C#N)cc2-c2ccn3nc(NC(=O)C4CC4)cc3c2)C1	Serine/threonine-protein kinase PAK 1 (PAK1, Homo sapiens, UniProt Q13153)	enzyme activity, inhibitor	1 µM	inhibition	4%
COc1cc(-c2cncc3c2CN(C)Cc2cc(N4CCNCC4)ccc2-3)cc(OC)c1OC	MAP kinase-activated protein kinase 3 (MAPKAPK3, Homo sapiens, UniProt Q16644)	enzyme activity, inhibitor	1 µM	remaining activity	114%
c1ccc(-c2cccc(Cc3ccnc4ccc(C5COC5)cc34)c2)cc1	PDE10A	enzyme activity, inhibitor, FP	0.1 µM	inhibition	39%
Cn1c(=O)c2[nH]cnc2n(C)c1=O	KCNA1	ion current, inhibitor, patch clamp	30 µM	inhibition	10.2%
CCCCC(=O)Nc1ccc(-c2ccc3ncn(CCC)c(=O)c3c2)cn1	Epidermal growth factor receptor (EGFR, Homo sapiens, UniProt P00533, L858R)	binding, competition with immobilised ligand	0.5 µM	remaining binding	100%
C1=C/COCc2cc(ccc2OCCN2CCCC2)Nc2nccc(n2)-c2cccc(c2)COC/1	Epidermal growth factor receptor (EGFR, Homo sapiens, UniProt P00533, L861Q)	binding	0.1 µM	remaining binding	83%
Cc1cc(OS(=O)(=O)Oc2ccc(-n3ccnc3)cc2)cc(C(=O)NO)c1	HDAC1	enzyme activity, inhibitor, fluorescence	10 µM	inhibition	22%
Cc1cc(O)c(-c2ccc([C@@H](C)CN(C)C)cc2)c2c1[nH]c(=O)c1sccc12	Inositol-tetrakisphosphate 1-kinase (Homo sapiens, UniProt Q13572)	cell-free assay, inhibitor	0.1 µM, lysate	inhibition	5.69%
Cc1c(OS(=O)(=O)Oc2ccc(C(F)(F)F)cc2)cccc1C(=O)NO	HDAC8	enzyme activity, inhibitor, fluorescence	10 µM	inhibition	37%
O=c1cc(-c2ccc(O)c(O)c2)oc2cc(O)cc(O)c12	PTGS2	enzyme activity, inhibitor	1.95 µg/mL	inhibition	78.8%

A few entries again:
Compound	target or system	assay	conditions	measurement	value
COc1cc([C@H]2OC[C@H]3[C@@H]2CO[C@@H]3c2cc(OC)c(O)c(OC)c2)cc(OC)c1O	PTGS2	enzyme activity, inhibitor	15.63 µg/mL	inhibition	100%
C=CC(=O)N1CCC(COCC(=O)N2CCN(c3nc(-c4cnc(N)nc4C(F)F)nc(N4CCOC[C@@H]4C)n3)CC2)CC1	Protein kinase C epsilon type (PRKCE, Homo sapiens, UniProt Q02156)	binding, competition with immobilised ligand	1 µM	remaining binding	85%
Cc1c(OS(=O)(=O)Oc2ccc(-n3ccnc3)cc2)cccc1C(=O)NO	HDAC1	enzyme activity, inhibitor, fluorescence	5 µM	inhibition	7%
CC(C)c1[nH]c2nc(N)nn2c(=O)c1Cc1ccc(Cl)c(Br)c1	C-C chemokine receptor type 5 (CCR5, Homo sapiens, UniProt P51681)	β-arrestin recruitment, antagonist	1 µM	inhibition	84%
CC(=O)O[C@@]12CO[C@@H]1C[C@H](O)[C@@]1(C)C(=O)[C@H](O)C3=C(C)[C@@H](OC(=O)[C@H](O)[C@@H](NC(=O)OC(C)(C)C)c4ccccc4)C[C@@](O)([C@@H](OC(=O)c4ccccc4)[C@H]21)C3(C)C	USP51	enzyme activity, inhibitor	5 µM	inhibition	0%
Cc1cc(OS(=O)(=O)Oc2ccc(C(C)C)cc2)cc(C(=O)NO)c1	HDAC6	enzyme activity, inhibitor, fluorescence	10 µM	inhibition	28%
COc1ccc(-c2oc3c(CC=C(C)C)c(O)cc(O)c3c(=O)c2O)cc1	USP51	enzyme activity, inhibitor	5 µM	inhibition	35%
